Assay results pooled from the literature.
Every numbered part comes from another study and shows a few of its results, in no order. Substitutions count along the parent as printed.

Series 1 — method: competition protein-binding microarray; molecule type: double-stranded DNA, one strand shown; matrix: in vitro; tested at: 2 µM; together with: Cbf1 competitor, 0.05 µM; direction: higher = stronger binding; shared flanks, not repeated: … GTCTTGATTCGCTTGACGCTGCTG
Target: Phosphate system positive regulatory protein PHO4, full length, GST-tagged (PHO4, Saccharomyces cerevisiae, UniProt P07270, residues 1-312)
Sequence of UniProt P07270 (whole entry, looked up): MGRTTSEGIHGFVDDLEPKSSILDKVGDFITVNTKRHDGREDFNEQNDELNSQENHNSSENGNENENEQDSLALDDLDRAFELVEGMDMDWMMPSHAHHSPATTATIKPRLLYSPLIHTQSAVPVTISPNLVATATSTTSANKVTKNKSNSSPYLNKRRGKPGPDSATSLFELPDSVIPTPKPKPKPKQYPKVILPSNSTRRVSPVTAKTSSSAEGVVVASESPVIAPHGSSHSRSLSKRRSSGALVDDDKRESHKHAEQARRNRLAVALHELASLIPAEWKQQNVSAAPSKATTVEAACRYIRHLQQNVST
Setting: whole 60-bp probe, lowest competitor level
| Sequence | fluorescence intensity [a.u.] |
| --- | --- |
| ACCCACATCACCCCATACATGACAATCTTCTTGCAA | 6770 |
| CATACCCAACCTTGAGAAGTGGGTGAAGATATTTGT | 3910 |
| TATATACATTGCCATCACGGGACTTAGCGTTAGTTC | 5780 |
| CGGGGTTAAGTTTGATGAGTGGGTGGCTTGCAGCAG | 5340 |
| ACAATGTTTCGACATCACCTGTTATGAAAAAAATAT | 4030 |
| TCACTCTATAGCTGTCATGCGTGGATTTTTCCAGCT | 7230 |
| CCCAAACTCTCAAAGCACGATCTAGAGAACCAGCAG | 8460 |
| ATCTCTGTCAACTGCCTCGTGCTAAAAGCAGGATTG | 11500 |
| TTTATCGTTTTCTGTGACGTGGCCGATGAGCACCAG | 5310 |
| AAGTACAAGTGAGGGATCGTGATTGTAGAGCACTCT | 5860 |
| CATACCCAACCTTGGTTAGTGGGTGAAGATATTTGT | 4190 |
| CTTCTGTAAATTTGTCACTTGACTTGACGCGCCCCG | 3950 |
| GCGGGCCGCTTTCCGCACGGCCTTATCTGGGGAATG | 5150 |
| CGTCCTAGCGATTGAAGTGTGGGTGCCATGAGGAAG | 7520 |
| CGGGGTTAAGTTTTTCACGTGGATTGCTTGCAGCAG | 12300 |
| CGGGGTTAAGTTTTTCACGTGCGCTGCTTGCAGCAG | 12300 |
| CTTCTGTAAATTTGCTGGGTGGGTGGACGCGCCCCG | 4490 |
| TGGCAGCGTAACTGGCACGGCCACATCGGTGGGATT | 4830 |

Series 2 — method: RNA Bind-n-Seq; molecule type: RNA; matrix: in vitro; tested at: not given; reference: input RNA pool; direction: higher = stronger binding
Target: RING finger protein unkempt homolog, zinc fingers 1-6, GST-SBP tag (UNK, Homo sapiens, UniProt Q9C0B0, residues 30-357)
Setting: RNA with constant flanks, human and mouse sites, ends assumed
Shared flanks, not repeated: GGGAGUUCUACAGUCCGACGAUC … CAACAGAGGAUUGAGCAUCA
Residues (chain): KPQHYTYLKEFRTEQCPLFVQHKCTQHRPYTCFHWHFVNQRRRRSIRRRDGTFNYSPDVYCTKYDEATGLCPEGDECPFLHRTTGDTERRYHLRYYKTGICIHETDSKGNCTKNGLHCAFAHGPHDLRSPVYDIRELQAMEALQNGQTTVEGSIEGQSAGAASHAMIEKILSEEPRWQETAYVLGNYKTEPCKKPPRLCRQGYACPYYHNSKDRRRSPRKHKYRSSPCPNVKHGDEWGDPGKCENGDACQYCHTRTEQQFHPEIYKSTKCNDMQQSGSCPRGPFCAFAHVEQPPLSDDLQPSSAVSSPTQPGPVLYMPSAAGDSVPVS
| Sequence | bound/input enrichment [ratio] |
| --- | --- |
| CAUUAUGACCGGGCUCAUAUUGCUCAACUGUGUGAAAAGGCUGGCCUACUGCAGCGUGCAUUAGAACAUUUCACUGAUUUAUAUGAUAUAAAACGUGCAGUGGUUCACACCCAUCUUCUU | 0.246 |
| UUCUUGGACUUUUACAUAUGGAGGUUUUCAACCAGCGAUUAGAGCAAGAAUAUAACGCUUCUGUCAUUUUGACAACCCCAACUGUUCCAUACAAAGCUGUUCUUUCCUCUGCAAAAUUAA | 0.0944 |
| UUUUUUGGAAAAUUGAACCGAACUUCUACUGAAUACAAGAUGAAAAUGUGGUUGCUGGUCAGUCAUCUUGUGAUAAUAUCUAUUACUACCUGUUUAGCAGAGUUUACAUGGUAUAGAAGA | 0.461 |
| ACUGGAAAAAAAAAUCGCCACCUGUUCUUACACCAGUAUUUGGUUCAAGACACCAAAUGUCUUCAGCCCAUGGCUGAAGAACAACAGAAGAGAGUCAGGAUAAAAAAUACAUACUGUGGU | 0.192 |
| AACAGAUUGUCUUUAAGCAUUCCAAGCGAGAAUGCUGGGGUGAUCAUUGUUGCCCAUGUGCCUUCUGACUGAGCUUUAAUGCUGUUCCAUGUUACAUCUUUCCUUCACUCCAGAAUUGUU | 0.138 |
| CCUACCCCCAUUGCAGGACUGGACAAUAUUAUCUUAUUCUUGAGAGGUUGUAAAGAGCUCGGCCUUAAAGAAUCUCAACUUUUUGACCCGAGUGACCUCCAGGAUACAUCCAACAGAGUA | 0.211 |
| CAGGAAUGCGGGGAGGCCUUUGCUCGUAGGUCUGAGCUCAUUGAGCACCAGAAGAUUCAUGAUAGAGAAAGACCUUCUGGAAGCCGACAUUAUGAGCGCUCUGUCAUCCGCAGCCUUGCG | 0.138 |
| GCGUUUCCUUCCCUUUCUGCGGGCCAGAAUCCCUGGAGGAACUUGUCUUCGGAGGAGCUGGAGAAGCAAUACUCACCCAGCAGAUGGGUCAUCCACACGAAACCAGAGGAAGUUGUUGGG | 0.0668 |

Series 3 — method: RNA Bind-n-Seq; molecule type: RNA; matrix: in vitro; tested at: 365 nM; reference: no-protein control; direction: higher = stronger binding
Target: RNA binding protein fox-1 homolog 2, RRM domain, GST-SBP tag (RBFOX2, Homo sapiens, UniProt O43251-10, residues 100-194)
Setting: natural RNA segment, single round, ends assumed
Shared flanks, not repeated: GGGAGUUCUACAGUCCGACGAUC … UGGAAUUCUCGGGUGCCAA
Residues (chain): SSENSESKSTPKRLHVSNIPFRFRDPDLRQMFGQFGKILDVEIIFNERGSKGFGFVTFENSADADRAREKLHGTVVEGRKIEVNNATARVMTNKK
| Sequence | RBNS enrichment (R) |
| --- | --- |
| CACUGGAAUAAUACUAUUUAUUUUCACCUGUGAAAAAUGACUUCAUUGUACUUGAAACACCUCCUUUGCAUUUCUCCAUUUGUGCCAUUCACUAGUGGAAAUAAAUUGUA | 0.368 |
| GUCUCUGGCACCAAAUAACCCAGCAGACAUGAGCCUUGCCUUCUGAGAUUUUAGAAUCUAAGAUAGCACGAGUGGGUAUAGAAGAUGGAAGAUACCGAUAAAUAACAUGG | 0.443 |
| UCCAUCUUUCCACCGCACACCUGGACCAGGCUUGCAGGCUGCCAGACGUCACUCCACCCGCCAGGGAGAGGGGAGCCAGAGCCGGUGGGAAGCGGGGAGGGGCUGCGUGG | 0.617 |
| ACUCAGAGUCUGCCUGCAUCUGUCUCCUAGUGCUGGGAUUAAAGGUGUGAGCCAUUAUACCUGGCUUUCAGGUAUGUUUUCUUAAGACUGCCAUCACAAAUGUCCCGGGG | 0.613 |
| CCUUUCUUUUCUUUCUUUUUUAAACUCUCUUUUCUCUGCUUCCCUUCCUUUGGGUUUCCAGAGUCUCUGGGAGAAGAAGGGUGGGCGGGUGGACCCAGAGCGACCCAGAU | 0.497 |
| AACCCACUCAGCAAAGUUGCCAACCUCGACGGGCUAGCAGUGUCUAAGCAGCGAUGGGUUCAGUGUUGUGUGUGGUGAAUACUGUAUUUUGUUUCAGUUCUGUCUCCCAG | 0.282 |
| UGCCUCUGUAGAGAGCAGCAUUCCCAGGGACCUUGGAAACAGUUGGCACUGUAAGGUGCUUGCUCCCCAAGACACAUCCUAAAAGGUGUUGUAAUGGUGAAAACGUCUUC | 0.307 |
| AUGCAACUGAGCAGGGUUAGGGAAACAGGUGUCAAGAAUGAAGAGAAUGGUUUUAUCUCCAAGGUGAUACCAAAAACGAGUCAUGGACGACAGGCCUGGCCUCACACGCC | 0.48 |

Series 4 — method: DHFR PCA, deep sequencing; matrix: yeast; together with: (+)-ABA 710 µM; reference: wild-type fitted maximum; direction: higher = stronger binding
Target: ABI1, truncated, D143A, DHFR fusion (Arabidopsis thaliana)
Setting: methotrexate growth selection, single substitutions
Starting sequence: PYL1, truncated, DHFR fusion (Arabidopsis thaliana); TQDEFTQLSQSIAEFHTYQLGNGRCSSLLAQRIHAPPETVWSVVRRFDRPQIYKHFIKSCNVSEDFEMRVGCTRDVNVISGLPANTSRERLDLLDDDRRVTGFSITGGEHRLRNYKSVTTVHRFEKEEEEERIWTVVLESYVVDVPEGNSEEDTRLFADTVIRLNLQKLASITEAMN; partner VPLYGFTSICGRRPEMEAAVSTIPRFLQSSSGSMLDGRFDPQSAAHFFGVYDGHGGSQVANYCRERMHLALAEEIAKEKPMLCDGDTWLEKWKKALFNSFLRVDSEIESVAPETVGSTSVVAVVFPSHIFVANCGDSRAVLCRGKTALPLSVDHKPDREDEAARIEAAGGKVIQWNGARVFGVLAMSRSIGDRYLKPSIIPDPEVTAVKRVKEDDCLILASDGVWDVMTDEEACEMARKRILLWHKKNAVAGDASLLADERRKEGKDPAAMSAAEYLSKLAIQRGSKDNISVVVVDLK
| Variant | relative binding score [%] |
| --- | --- |
| R88M | 107 |
| G23M | 99.5 |
| A84M | 29.4 |
| R98A | 106 |
| E174Q | 102 |
| E139M | 93.5 |
| N77E | 104 |
| N114P | 3.83 |
| L112P | 15.5 |
| L91G | -23.5 |
| V136W | 96.5 |
| I172A | 88.2 |
| F124H | 104 |
| K58Q | 99.7 |
| C72H | 97.1 |
| R32Y | 95.1 |
| D65N | 95.5 |
| R74P | -0.483 |
| N177D | 102 |
| D75S | 100 |
| P36Q | 95.1 |
| L28C | 92 |
| S140M | 16.9 |
| G107K | 88.5 |
| K116F | 61.5 |

For quick reference, copied from above (series 3):
| Sequence | RBNS enrichment (R) |
| --- | --- |
| GUCUCUGGCACCAAAUAACCCAGCAGACAUGAGCCUUGCCUUCUGAGAUUUUAGAAUCUAAGAUAGCACGAGUGGGUAUAGAAGAUGGAAGAUACCGAUAAAUAACAUGG | 0.443 |
| UCCAUCUUUCCACCGCACACCUGGACCAGGCUUGCAGGCUGCCAGACGUCACUCCACCCGCCAGGGAGAGGGGAGCCAGAGCCGGUGGGAAGCGGGGAGGGGCUGCGUGG | 0.617 |
| ACUCAGAGUCUGCCUGCAUCUGUCUCCUAGUGCUGGGAUUAAAGGUGUGAGCCAUUAUACCUGGCUUUCAGGUAUGUUUUCUUAAGACUGCCAUCACAAAUGUCCCGGGG | 0.613 |
| CCUUUCUUUUCUUUCUUUUUUAAACUCUCUUUUCUCUGCUUCCCUUCCUUUGGGUUUCCAGAGUCUCUGGGAGAAGAAGGGUGGGCGGGUGGACCCAGAGCGACCCAGAU | 0.497 |
| AACCCACUCAGCAAAGUUGCCAACCUCGACGGGCUAGCAGUGUCUAAGCAGCGAUGGGUUCAGUGUUGUGUGUGGUGAAUACUGUAUUUUGUUUCAGUUCUGUCUCCCAG | 0.282 |
